Published values from different studies.
Compare with care: the assays were run in different laboratories. Values joined by “and” are separate records of one study, mostly repeats; a detail may differ. ± marks the error that the study gave.

For `O=C(O)CCCOc1ccc(F)cc1-c1cc(-c2ccccc2C(F)(F)F)n(-c2ccccc2)n1`, “serum protein fraction” read 4.3 ± 0.7% (item: γ-glb; Crl:CD(SD) rats, male, serum; iv, 25 µg/kg, 14 days).
For `CC(C)[C@@H]1NC(=O)CNC(=O)[C@H](CC(N)=O)NC(=O)[C@H](CCCNC(=N)N)NC(=O)[C@H](Cc2ccc(O)cc2)NC(=O)[C@H](C(C)C)NC(=O)[C@@H](NC(=O)[C@@H](NC(=O)[C@H](CC(N)=O)NC(=O)[C@H](Cc2c[nH]c3ccccc23)NC(=O)[C@H](C)NC(=O)[C@H](Cc2ccccc2)NC(=O)CN)C(C)C)CSSC[C@@H](C(=O)N[C@@H](Cc2c[nH]cn2)C(=O)N[C@@H](CCCNC(=N)N)C(=O)N[C@@H](CCCNC(=N)N)C(=O)N[C@@H](C)C(=O)N[C@@H](CC(N)=O)C(N)=O)NC(=O)[C@H](C(C)C)NC(=O)[C@H](CCCNC(=N)N)NC1=O`, “secondary structure content” read 5.81% (circular dichroism, item: α-Helix; PBS; 80 µM, pH 7.4).
For `C[C@@H](NC(=O)N1C(=O)[C@H](Cc2ccnc(N)c2)[C@H]1C(=O)O)C1CCCCC1`, “incidence of administration site extravasation” read 12.5% (healthy adult Chinese volunteers; continuous intravenous infusion, 1.5 mg/kg/h, 5-day infusion, CTCAE 5.0 grading).
`Clc1ccc(-c2ccccc2)cc1` — result for “serum free thyroxine”: 49 ± 11 pmol/L (rat Sprague-Dawley female, serum; inhalation, 23 µg/rat, 4 h).
`C=CCNc1c(O)cc2c(O)c1C[C@@H](C)C[C@H](OC)[C@H](O)[C@@H](C)/C=C(\C)[C@H](OC(N)=O)[C@@H](OC)/C=C\C=C(/C)C(=O)N2` — result for “patients with myalgia TEAE”: 14% (unresectable or metastatic STS, GIST, other; intravenous, 500 mg/m^2).
The accuracy of `O=c1ccc2ccc3occc3c2o1` is reported as 82.2% (post-procedure stability; rat plasma; 1000 ng/mL, 1 h, room temperature).
The plasma concentration of `Cc1ccc(F)c2cc(C(=O)N[C@@H]3CCC[C@H](N4CC[C@H](N(C)S(C)(=O)=O)C4)C3)[nH]c12` is reported as 18.8 ng/mL (CD1 mouse, plasma; intravenous, 1 mg/kg, 4 h).
`C[C@]1(CO)Cc2ncn(-c3ccc(C#N)c(Cl)c3)c2C(=O)O1` gave an AUC(0-inf) of 8.21 µM·h (human, plasma; 40 mg single dose, geometric mean).
With `N#C[C@@]1(n2ccc(N)nc2=O)O[C@H](CO)[C@@H](O)[C@H]1O` the concentration was 370 nM and 590 nM and 610 nM (CD-1 mouse, plasma; intravenous, dose not given, 7 h).
With `C=C(CN(C(=O)c1c(C(F)F)nn(C)c1F)C1CC1)c1ccc(Cl)cc1Cl` the mortality was 30% (static acute toxicity test; zebrafish (Brachydanio rerio); 1.20 mg a.i./L, 6 h).
The tissue uptake of `[Cl][212Pb][Cl]` is reported as 0.99 ± 0.48 %ID/g (item: 212Pb; athymic mouse, C4-2 prostate xenograft, spleen; intravenous, 2 h, below quantification limit).
For `O=C1Nc2cc3[nH]nc(-c4ccncc4)c3cc2CN1Cc1ccccc1`, “patients with abdominal pain” read 0% (CTCAE v4.03; advanced solid tumour patients; intravenous, 4.8 mg/kg, schedules 1/2).
`COc1cc2c(Oc3ccc4[nH]c(C)cc4c3F)ccnc2cc1OCC1(N)CC1`: “incidence of adverse event” 5.9% (item: grade 3 hand-foot syndrome; paediatric high-risk refractory sarcoma; whole group).
`[131I-].[Na+]`: “ischemic heart disease incidence” 0.4% (hyperthyroidism patients; 185 MBq, long-term follow-up).
